# Measured values of several laboratories.
# Each line is one published result; not all experiments were run side by side. Numbers after ± are the reported error.
Structure (SMILES),assay,system,conditions,scale,measurement,value
COC[C@@H](NC(C)=O)C(=O)NCc1ccc(OCc2cccc(F)c2)cc1,"formalin test, phase II",mouse,"ip, 9.0 mg/kg",relative to: vehicle,licking time,63%
CCOP(=O)(OCC)OCCCCOC(=O)CC1=C(C)/C(=C/c2ccc([S+](C)[O-])cc2)c2ccc(F)cc21 (centres unmarked),,"rat, Freund's adjuvant arthritis, hind legs","oral, 50 mg/kg once daily, prevention protocol","relative to: control, direction not given",clinical score reduction,40%
CC[C@H](C)[C@H](NC(=O)[C@H](CCCNC(=N)N)NC(=O)[C@H](CCC(N)=O)NC(=O)[C@H](CC(=O)O)NC(=O)[C@H](CC(C)C)NC(=O)[C@H](CC(C)C)NC(=O)[C@H](CC(N)=O)NC(=O)[C@H](Cc1ccccc1)NC(=O)[C@H](CC(=O)O)NC(=O)[C@@H](NC(=O)[C@@H](NC(=O)[C@H](CC(N)=O)NC(=O)CNC(=O)[C@H](CO)NC(C)=O)C(C)C)[C@@H](C)CC)C(=O)N[C@H](C(=O)N[C@@H](Cc1c[nH]c2ccccc12)C(=O)N[C@@H](CCC(N)=O)C(=O)N[C@@H](CC(N)=O)C(=O)N[C@@H](Cc1c[nH]c2ccccc12)C(=O)N[C@@H](Cc1ccc(O)cc1)C(=O)N[C@@H](C)C(N)=O)[C@@H](C)CC,item: HA-52 tetramer,"antigen-experienced tetramer+ CD4 T cells, healthy adults, HLA-DRB1*0101",dose not given,,α4β7− CCR9+ cells,5.56%
CCN(Cc1ccccc1)C(=O)CCc1nc(CN2CCN(C(=O)Cc3ccc(OC)c(OC)c3)CC2)no1,current clamp,"L4-L6 DRG neurons, rat CCI model",10 µM,,resting membrane potential,-68 ± 2.63 mV
CC[C@H](C)[C@H](NC(=O)[C@H](C)NC(=O)CNC(=O)[C@@H](N)CCSC)C(=O)N[C@@H](C)C(=O)N[C@@H](CCCCN)C(=O)N[C@@H](CC(C)C)C(=O)N[C@H](C(=O)N[C@@H](C)C(=O)N[C@@H](CCCCN)C(=O)N[C@@H](Cc1ccccc1)C(=O)NCC(=O)N[C@@H](Cc1c[nH]c2ccccc12)C(=O)N1CCC[C@H]1C(=O)N[C@@H](Cc1ccccc1)C(=O)N[C@H](C(=O)N[C@@H](CCCCN)C(=O)N[C@@H](CCCCN)C(=O)N[C@@H](Cc1ccccc1)C(=O)N[C@@H](Cc1ccc(O)cc1)C(=O)N[C@@H](CCCCN)C(=O)N[C@@H](CCC(N)=O)C(=O)N[C@@H](CCCNC(=N)N)C(=O)N[C@@H](CCSC)C(=O)N[C@@H](CCC(N)=O)C(=O)N[C@@H](Cc1ccccc1)C(=O)N[C@H](C(=O)NCC(=O)N[C@@H](CCC(N)=O)C(=O)NCC(=O)N[C@@H](Cc1c[nH]c2ccccc12)C(=O)N[C@H](C(=O)N[C@H](C(=O)N[C@@H](CC(=O)O)C(=O)N[C@@H](CCC(N)=O)C(=O)N[C@H](C(=O)N[C@@H](CCC(=O)O)C(=O)N[C@@H](CCCCN)C(=O)N[C@@H](Cc1c[nH]c2ccccc12)C(=O)N[C@@H](CC(C)C)C(=O)N[C@@H](CCCCN)C(=O)N[C@@H](CCCNC(=N)N)C(=O)N[C@@H](Cc1c[nH]cn1)C(=O)O)[C@@H](C)CC)[C@@H](C)CC)[C@@H](C)O)[C@@H](C)CC)[C@@H](C)CC)C(C)C,,PG/PE 1:1 liposomes,MIC,relative to: Triton X-100,calcein release,24.5 ± 1%
N=C(N)NCCC[C@H]1NC(=O)[C@H](CCCN)NC(=O)[C@@H](Cc2c[nH]cn2)NC(=O)[C@H](Cc2ccc(O)cc2)NC(=O)[C@@H](Cc2ccc(O)cc2)NC(=O)[C@H](Cc2ccccc2)NC(=O)[C@@H](Cc2c[nH]c3ccccc23)NC(=O)[C@H](CO)NC1=O,ELISA,human plasma,concentration not given,,pre-beta HDL concentration,63 ± 10 µg/mL
Cc1cc(O)cc(C)c1CC(N)C(=O)NC1CCNc2c(Br)cc(Cc3ccccc3)cc21 (centres unmarked),warm water tail withdrawal,male C57BL/6 mice,"intraperitoneal, 10 mg/kg",,antinociception,inactive
Cc1cc(O)cc(C)c1C[C@H](N)C(=O)N[C@H](C)C(=O)N[C@@H](Cc1ccccc1)C(=O)N[C@@H](Cc1ccccc1)C(N)=O,tail flick,C57BL/6 mice,intracerebroventricular,,analgesic ED50,0.1 µg
COc1cc(C(Oc2ccc(C[C@H](N)C(=O)N[C@H](C)C(=O)NCC(=O)N(C)[C@@H](Cc3ccccc3)C(=O)NCCO)cc2)C(=O)O)c([N+](=O)[O-])cc1OC (some centres unmarked),,mouse formalin pain model,"intra-NAc infusion, 0.5 µL, 200 µM, together with: 375 nm light uncaging",,duration of paw-attending decrease,10 to 20 min
C[C@]12CC[C@H](O)CC1CCC1C2[C@H](O)C(=O)[C@]2(C)[C@@H](c3ccc(=O)oc3)CC[C@]12O (some centres unmarked),"sulfation, substrate",rabbit liver cytosol,,,Vmax,0.1 ± 0.002 nmol/min/mg
CC(C)C[C@@H]1NC(=O)[C@H](C(C)C)NC(=O)[C@H](CO)NC(=O)CNC(=O)CNC(=O)[C@H](CCCNC(=N)N)NC(=O)[C@@H]2CCCN2C(=O)[C@@H](NC(=O)CC[C@H](NC(=O)c2ccc(N(C)Cc3cnc4nc(N)nc(N)c4n3)cc2)C(=O)O)C(C)(C)SSC[C@@H](C(=O)O)NC(=O)CNC(=O)[C@H]([C@@H](C)O)NC(=O)[C@H](C(C)C)NC1=O,,rat adjuvant arthritis,"intravenous, 1 mg/kg once daily, day 14",relative to: arthritis vehicle,spleen weight increase suppression,49%
CC(C)C[C@H]1NC(=O)[C@H](NC(=O)CN)CSSC[C@H]2NC(=O)[C@H]3CSSC[C@H](C(=O)N[C@H](CC(N)=O)C(=O)N[C@H](Cc4ccccc4)C(=O)N[C@H](CO)C(=O)N[C@H](Cc4ccccc4)C(N)=O)NC(=O)[C@@H](CC(C)C)NC(=O)[C@@H](CCCCN)NC(=O)[C@@H](Cc4ccccc4)NC(=O)[C@@H](CC(C)C)NC(=O)[C@@H](CCCCN)NC(=O)[C@@H](CO)NC(=O)[C@@H](CSSC[C@@H](NC(=O)[C@@H](CCCCN)NC(=O)[C@@H](Cc4c[nH]c5ccccc45)NC(=O)[C@@H](Cc4c[nH]c5ccccc45)NC(=O)[C@@H](Cc4ccccc4)NC(=O)[C@@H](CCC(=O)O)NC1=O)C(=O)N[C@H](CC(N)=O)C(=O)N1CCC[C@@H]1C(=O)N[C@H](CC(N)=O)C(=O)N[C@H](CC(=O)O)C(=O)N[C@H](CC(=O)O)C(=O)N[C@H](CCCCN)C(=O)N3)NC(=O)[C@@H](CCCCN)NC(=O)[C@@H](CC(C)C)NC(=O)[C@@H](CCCCN)NC(=O)[C@H]1CCCN1C(=O)[C@@H](CCCNC(=N)N)NC2=O,,"D2.mdx mice, muscle","dose not given, six weeks",,centrally nucleated fibres,no effect
C[C@@H](O)[C@H](NC(=O)[C@@H]1CSSC[C@H](NC(=O)[C@@H](Cc2ccccc2)NC(=O)CN2CCN(CC(N)=O)CCN(CC(N)=O)CCN(CC(N)=O)CC2)C(=O)N[C@@H](Cc2ccc(O)cc2)C(=O)N[C@H](Cc2c[nH]c3ccccc23)C(=O)N[C@@H](CCCCN)C(=O)N[C@@H]([C@@H](C)O)C(=O)N1)C(=O)O [lead-212 labelled],,"AR-42J tumour, mice","3 x 10 µCi, two-week intervals",,median survival,11.9 weeks
CC(C)C[C@H](NC=O)C(=O)N[C@@H](C)C(=O)N[C@@H](C)C(=O)N[C@@H](CC(=O)O)C(=O)N[C@@H](CC(C)C)C(=O)N[C@@H](CC(C)C)C(=O)N[C@@H](C)C(=O)N[C@@H](C)C(=O)N[C@@H](CC(C)C)C(=O)NCC(=O)N[C@@H](CC(=O)O)C(=O)N[C@@H](CC(C)C)C(=O)N[C@@H](C)C(=O)N[C@@H](CCCCN)C(=O)N[C@@H](Cc1c[nH]c2ccccc12)C(=O)N[C@@H](CC(C)C)C(=O)N[C@@H](CC(C)C)C(=O)N[C@@H](CC(=O)O)C(=O)N[C@@H](C)C(=O)N[C@@H](CC(C)C)C(=O)N[C@@H](C)C(=O)N[C@@H](CCCCN)C(=O)N[C@@H](C)C(=O)N[C@@H](C)C(=O)N[C@@H](CCCCN)C(=O)N[C@@H](CCCCN)C(=O)O (racemic),,POPC vesicles,,,DPX over ANTS release ratio,0.28
CC[C@H](C)[C@H](NC(=O)[C@H](Cc1c[nH]c2ccccc12)NC(=O)[C@H](CCCNC(=N)N)NC(=O)[C@H](CCCCN)NC(=O)[C@H](CC(C)C)NC(=O)[C@H](CC(=O)O)NC(=O)[C@H](Cc1ccccc1)NC(=O)[C@H](C)NC(=O)[C@H](Cc1ccc(O)cc1)NC(=O)[C@H](CC(N)=O)NC(=O)[C@H](Cc1ccc(O)cc1)NC(=O)[C@H](CCCNC(=N)N)NC(=O)[C@H](Cc1ccc(O)cc1)NC(=O)[C@H](Cc1ccc(O)cc1)NC(=O)[C@@H](NC(=O)[C@H](CC(C)C)NC(=O)[C@H](C)NC(=O)[C@H](CC(N)=O)NC(=O)[C@H](Cc1ccc(O)cc1)NC(C)=O)[C@@H](C)CC)C(=O)N[C@@H](Cc1ccc(O)cc1)C(=O)N[C@@H](CC(C)C)C(N)=O,item: HA-52 tetramer,"antigen-experienced tetramer+ CD4 T cells, healthy adults, HLA-DRB1*0101",dose not given,,α4β7− CCR9+ cells,7.14%
COC[C@@H](NC(C)=O)C(=O)NCc1ccc(OCc2ccc(Cl)cc2)cc1,"formalin test, phase I",mouse,"ip, 7.0 mg/kg",relative to: vehicle,licking time,85%
Cc1ccc(/C=C/C(=O)O)cc1-c1cc2c(cc1C)C(C)(C)CCC2(C)C,"RNA sequencing, item: Sfrp5","rat, brain","dose not given, 24 h",relative to: vehicle,log2 fold change,-0.3
Cc1cc(O)cc(C)c1CC(N)C(=O)NC1CCNc2c(C)cc(Cc3ccccc3)cc21 (centres unmarked),warm water tail withdrawal,male C57BL/6 mouse,"ip, 10 mg/kg, 50 °C, cutoff 20 s",,tail withdrawal latency,20 s
CC[C@H](C)[C@H](NC(=O)[C@@H](NC(=O)[C@H](CC(=O)O)NC(C)=O)[C@@H](C)O)C(=O)N[C@@H](CCCNC(=N)N)C(=O)N[C@@H](CC(C)C)C(=O)N[C@@H](CC(C)C)C(=O)N[C@@H](Cc1ccccc1)C(=O)N[C@@H](CCC(N)=O)C(=O)N[C@@H](CC(C)C)C(=O)N[C@@H](CCSC)C(=O)N[C@@H](CCCNC(=N)N)C(=O)N1CCC[C@H]1C(=O)N1CCC[C@H]1C(=O)N[C@@H](CC(N)=O)C(=O)N[C@@H](CCSC)C(=O)N[C@H](C(=O)N1CCC[C@H]1C(=O)N[C@@H](C)C(=O)N[C@H](C(=O)N[C@@H](CC(N)=O)C(=O)N[C@@H](C)C(N)=O)C(C)C)[C@@H](C)O,item: HA-02 tetramer,"antigen-experienced tetramer+ CD4 T cells, healthy adults, HLA-DRB1*0101",dose not given,,α4β7− CCR9− cells,3.33%
CC[C@H](C)[C@@H]1NC(=O)[C@@H](N)CSSC[C@@H]2NC(=O)[C@@H]3CSSC[C@@H]4NC(=O)[C@H](Cc5ccccc5)NC(=O)CNC(=O)[C@H](C(C)C)NC(=O)[C@H](CC(C)C)NC(=O)[C@H](CSSC[C@H](NC(=O)[C@H](Cc5c[nH]c6ccccc56)NC(=O)CNC(=O)CNC(=O)[C@H](CO)NC(=O)[C@H](CO)NC1=O)C(=O)NCC(=O)N[C@@H](Cc1ccccc1)C(=O)N[C@@H](CC(=O)O)C(=O)N[C@@H](CC(C)C)C(=O)N[C@@H](Cc1c[nH]cn1)C(=O)NCC(=O)N3)NC(=O)CNC(=O)[C@H](CSSC[C@@H](C(=O)O)NC(=O)CNC(=O)[C@H]([C@@H](C)O)NC(=O)CNC(=O)[C@H](Cc1ccc(O)cc1)NC4=O)NC(=O)[C@H](CC(N)=O)NC(=O)CNC2=O,isometric tension,isolated rat aortic rings,"concentration not given, together with: phenylephrine 0.1 µM",,contraction,decreased
